{"sequences": {"note": "The chains behind the UniProt entries cited, without tags or fusion partners. Residues count along the entry.", "UniProt P30926, 22-498 limits assumed": "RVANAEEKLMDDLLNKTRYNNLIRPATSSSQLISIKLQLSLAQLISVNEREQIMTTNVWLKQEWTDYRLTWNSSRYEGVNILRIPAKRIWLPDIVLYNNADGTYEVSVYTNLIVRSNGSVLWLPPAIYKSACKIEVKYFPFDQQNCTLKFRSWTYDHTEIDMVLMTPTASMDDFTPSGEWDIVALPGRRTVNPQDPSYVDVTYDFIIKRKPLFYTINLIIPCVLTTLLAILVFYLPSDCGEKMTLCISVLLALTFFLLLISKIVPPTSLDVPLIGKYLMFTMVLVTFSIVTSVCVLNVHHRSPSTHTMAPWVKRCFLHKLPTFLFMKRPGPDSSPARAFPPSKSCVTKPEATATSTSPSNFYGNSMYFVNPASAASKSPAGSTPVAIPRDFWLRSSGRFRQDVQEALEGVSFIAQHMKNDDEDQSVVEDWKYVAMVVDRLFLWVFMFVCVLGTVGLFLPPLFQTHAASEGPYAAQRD", "UniProt P43681, 29-627 limits assumed": "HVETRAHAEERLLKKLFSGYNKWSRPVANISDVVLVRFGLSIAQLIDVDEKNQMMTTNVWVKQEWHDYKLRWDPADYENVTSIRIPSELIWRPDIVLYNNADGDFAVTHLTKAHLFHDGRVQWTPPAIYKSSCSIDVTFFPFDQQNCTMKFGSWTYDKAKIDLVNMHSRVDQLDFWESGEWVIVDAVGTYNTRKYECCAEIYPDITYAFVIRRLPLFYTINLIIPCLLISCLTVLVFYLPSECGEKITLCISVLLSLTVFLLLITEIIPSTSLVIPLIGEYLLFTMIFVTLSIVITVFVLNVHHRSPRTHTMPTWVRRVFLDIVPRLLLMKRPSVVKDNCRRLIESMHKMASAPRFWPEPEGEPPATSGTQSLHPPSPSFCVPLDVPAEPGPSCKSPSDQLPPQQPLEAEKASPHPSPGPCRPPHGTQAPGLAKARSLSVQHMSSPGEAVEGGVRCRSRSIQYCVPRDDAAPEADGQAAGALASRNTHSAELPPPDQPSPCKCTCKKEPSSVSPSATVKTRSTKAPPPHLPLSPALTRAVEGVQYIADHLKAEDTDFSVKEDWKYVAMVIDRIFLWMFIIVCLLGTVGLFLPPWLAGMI", "UniProt P37136, 32-614 limits assumed": "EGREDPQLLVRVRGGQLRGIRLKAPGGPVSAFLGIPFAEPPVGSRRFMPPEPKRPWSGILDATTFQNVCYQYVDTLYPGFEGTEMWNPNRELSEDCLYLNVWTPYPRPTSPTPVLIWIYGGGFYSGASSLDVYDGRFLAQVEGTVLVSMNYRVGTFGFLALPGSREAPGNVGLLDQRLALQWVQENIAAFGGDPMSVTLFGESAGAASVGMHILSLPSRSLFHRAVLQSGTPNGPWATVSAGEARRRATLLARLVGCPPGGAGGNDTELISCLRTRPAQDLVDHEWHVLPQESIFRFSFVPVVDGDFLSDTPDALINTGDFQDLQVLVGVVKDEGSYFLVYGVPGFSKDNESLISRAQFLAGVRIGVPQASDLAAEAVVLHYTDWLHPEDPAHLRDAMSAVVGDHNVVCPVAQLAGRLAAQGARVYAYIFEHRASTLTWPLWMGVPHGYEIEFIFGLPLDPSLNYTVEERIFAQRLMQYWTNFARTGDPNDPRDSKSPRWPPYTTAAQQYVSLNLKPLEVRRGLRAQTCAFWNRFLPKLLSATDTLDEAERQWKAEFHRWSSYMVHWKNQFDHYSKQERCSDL", "UniProt P42574, whole entry, looked up": "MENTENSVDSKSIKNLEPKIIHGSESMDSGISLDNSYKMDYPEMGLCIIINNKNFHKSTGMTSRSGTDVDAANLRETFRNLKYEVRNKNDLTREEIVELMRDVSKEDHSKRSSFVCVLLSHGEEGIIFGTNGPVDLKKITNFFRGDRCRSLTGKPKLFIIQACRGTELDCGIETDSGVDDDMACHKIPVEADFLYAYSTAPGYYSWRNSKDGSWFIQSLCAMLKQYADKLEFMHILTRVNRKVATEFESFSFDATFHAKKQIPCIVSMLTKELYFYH"}, "data": "Measured values pooled from the literature", "note": "Lines come from different studies, so protocols differ. ± gives the spread as reported."}
{"Compound": "N#Cc1c(-c2ccc(Cl)cc2Cl)n(-c2nc(-c3ccc(Cl)cc3)c3c(NC(=O)c4ccccc4)nnc-3[nH]2)[nH]c1=O", "target or system": "HL-60(TB)", "measurement": "GI50", "result": "2740 nM"}
{"Compound": "CC(=O)N[C@@H](C)C(=O)N[C@@H](CCCCN)C(=O)N[C@@H](Cc1ccccc1)C(=O)N[C@@H](CCC(=O)O)C(=O)N[C@@H](CC(=O)O)C(=O)N[C@H](C(=O)N[C@@H](Cc1ccc(OP(=O)(O)O)cc1)C(=O)N[C@@H](C)C(=O)N[C@@H](C)C(N)=O)[C@@H](C)O", "target or system": "SHP-1 catalytic domain (ΔSH2)", "test": "phosphatase activity, substrate", "conditions": "pH 7.4", "measurement": "kcat", "result": "19 ± 2 s⁻¹"}
{"Compound": "CC1(C)N=C(N)N=C(N)N1c1cccc(OCCCc2ccccc2)c1", "target or system": "Mycobacterium tuberculosis", "test": "microplate alamar blue", "test system": "H37Rv", "conditions": "GAST medium, glycerol carbon source", "measurement": "MIC90", "result": "3.1 µM"}
{"Compound": "COc1cc(C2C(C#N)=C(N)Oc3c2c(C)nn3-c2ccc(Cl)cc2)ccc1O (stereo not drawn)", "target or system": "Vero E6", "conditions": "0.4 µM", "measurement": "viability", "result": "90.7%"}
{"Compound": "CC(C)C1CCC(N2CCC3(CC2)C(=O)N(CCNS(N)(=O)=O)Cc2ccccc23)CC1 (stereo not drawn)", "test": "antinociception, warm water tail withdrawal", "test system": "rhesus monkey", "conditions": "subcutaneous", "measurement": "minimum full effective dose", "result": "0.03 mg/kg"}
{"Compound": "Cc1cc(Nc2ccc(S(F)(F)(F)(F)F)cc2)n2nc(C(C)(F)F)nc2n1", "target or system": "Plasmodium falciparum", "test": "parasite growth, SYBR Green", "test system": "Ugandan patient field isolates, Albumax-based medium", "conditions": "72 h", "measurement": "EC50", "result": "0.77 nM"}
{"Compound": "COC(=O)c1cc(Cl)ccc1NC(=O)CSc1ncc(S(=O)(=O)c2ccc(Br)cc2)c(=O)[nH]1", "target or system": "dengue virus 2", "test": "viral replication, single-cycle viral yield", "test system": "New Guinea C", "conditions": "10 µM", "measurement": "inhibition", "result": "> 90%"}
{"Compound": "CC(=O)N[C@@H](CO)C(=O)N[C@@H](C)C(=O)N[C@@H](CO)C(=O)N[C@@H](C)C(=O)N[C@@H](CO)C(=O)N[C@@H](Cc1ccc(OP(=O)(O)O)cc1)C(=O)N[C@@H](CO)C(=O)N[C@@H](C)C(=O)N[C@@H](CO)C(=O)N[C@@H](C)C(N)=O", "target or system": "SHP-1 catalytic domain (ΔSH2)", "test": "phosphatase activity, substrate", "conditions": "pH 7.4", "measurement": "kcat", "result": "26 ± 4 s⁻¹"}
{"Compound": "O=C(CSc1nccn1C1CCCCC1)Nc1cc(C(F)(F)F)ccc1Cl", "target or system": "Plasmodium falciparum", "test": "parasite growth", "scale": "baseline: 3D7 E182D over 3D7 wild type", "measurement": "EC50 ratio", "result": 6.6}
{"Compound": "C(#Cc1n[nH]c2ncccc12)c1ccccn1", "target or system": "PRAS40 Ser183 phosphorylation (mTORC1)", "test": "LanthaScreen", "test system": "HEK293E", "conditions": "60 min, together with: insulin", "measurement": "IC50", "result": "> 10000 nM"}
{"Compound": "O=C(Nc1cccc(C2=NCCN2)c1)c1ccc(-c2ccc(C(=O)Nc3cccc(C4=NCCN4)c3)cc2)cc1", "target or system": "Leishmania donovani", "test": "EdU labelling", "conditions": "concentration not given", "measurement": "nuclear DNA replication", "result": "no effect"}
{"Compound": "CCOc1ccc(C2C(C#N)=C(N)Oc3c2c(C)nn3-c2ccc(Cl)cc2)cc1 (stereo not drawn)", "target or system": "Vero E6", "test": "MTT", "conditions": "25 µM", "measurement": "viability", "result": "47%"}
{"Compound": "CC[C@H](C)[C@@H]1NC(=O)[C@H](CCC(=O)O)NC(=O)[C@@H]2CCCN2C(=O)[C@H](Cc2c[nH]cn2)NC(=O)[C@H](CCCNC(=N)N)NC(=O)[C@H](C(C)C)NC(=O)[C@H](CC(N)=O)NC(=O)[C@@H]2CSSC[C@H](NC(=O)CN)C(=O)N[C@@H](CSSC[C@@H](C(N)=O)NC1=O)C(=O)N[C@@H](CO)C(=O)N[C@@H](Cc1c[nH]cn1)C(=O)N1CCC[C@H]1C(=O)N[C@@H](C(C)C)C(=O)N2", "target or system": "Neuronal acetylcholine receptor; alpha4/beta4 (Homo sapiens, UniProt P30926+P43681)", "test": "ion current, antagonist, two-electrode voltage clamp", "test system": "Xenopus oocytes", "conditions": "human, together with: ACh 300 µM", "measurement": "IC50", "result": "4020 nM"}
{"Compound": "CC/C=C\\C/C=C\\CCC/C=C/C=C/C=C\\CCCC(=O)O", "target or system": "HL-60 (p53-null)", "test": "cell growth, MTT", "conditions": "24 h", "measurement": "LD50", "result": "12.5 µM"}
{"Compound": "Fc1ccc2[nH]cc(CNCC3(N4CCCC4)COC3)c2c1", "target or system": "T98G", "test": "single-dose screen", "conditions": "30 µM, 48 h", "scale": "baseline: DMSO control", "measurement": "viability", "result": "97.9%"}
{"Compound": "CC(C)CC(NC(=O)C(Cc1ccccc1)NC(=O)c1cnc(C(=O)NC(Cc2ccccc2)C(=O)NC(CC(C)C)B(O)O)cn1)B(O)O (stereo not drawn)", "target or system": "MM1.S", "test": "cell viability, CellTiter-Glo", "conditions": "48 h", "measurement": "IC50", "result": "7.5 nM"}
{"Compound": "CCCC[C@H](NC(=O)[C@H](Cc1c[nH]c2ccccc12)NC(=O)CNC(=O)[C@@H](CCCC)NC(=O)[C@@H](N)Cc1ccc(O)cc1)C(=O)N[C@@H](CC(=O)O)C(=O)N[C@@H](Cc1ccccc1)C(N)=O", "test": "CCK antagonist", "test system": "male Sprague Dawley rat", "conditions": "RVM microinjection, 60 ng, naloxone 10 mg/kg sc, together with: CCK-8 sulfate 30 ng", "measurement": "paw withdrawal latency", "result": "20.1 s"}
{"Compound": "CC(=O)N[C@@H](C)C(=O)N[C@@H](Cc1ccc(O)cc1)C(=O)N[C@H](C(=O)N[C@@H](CCC(=O)O)C(=O)N[C@@H](Cc1ccc(OP(=O)(O)O)cc1)C(=O)N[C@H](C(=O)N[C@@H](Cc1ccc(OP(=O)(O)O)cc1)C(=O)N[C@@H](C)C(=O)N[C@@H](C)C(N)=O)[C@@H](C)O)[C@@H](C)O", "target or system": "SHP-1 catalytic domain (ΔSH2)", "test": "phosphatase activity, substrate", "conditions": "pH 7.4", "measurement": "kcat", "result": "17 ± 1 s⁻¹"}
{"Compound": "CSCC[C@H](NC(=O)[C@H](CC(C)C)NC(=O)[C@H](CCCCN)NC(=O)[C@H](CCC(N)=O)NC(=O)[C@H](CCCNC(=N)N)NC(=O)[C@H](CCCCN)NC(=O)[C@H](CCCNC(=N)N)NC(=O)[C@H](CCC(N)=O)NC(=O)[C@@H](N)C(C)C)C(=O)N1CCC[C@H]1C(=O)O", "target or system": "human importin alpha4", "test": "pull-down with immobilized compound", "test system": "Jurkat cell lysate", "conditions": "concentration not given, together with: 300 µM unlabelled peptide", "measurement": "competition of binding", "result": "~20%"}
{"Compound": "CCOC(=O)c1c(-c2ccc(Cl)cc2Cl)n(-c2nc(-c3ccc(Cl)cc3)c3c(NC(=O)c4ccccc4)nnc-3[nH]2)[nH]c1=O", "target or system": "HL-60(TB)", "conditions": "10 µM", "measurement": "cell growth", "result": "5.63%"}
{"Compound": "COP(=O)(OC)Oc1ccc([N+](=O)[O-])cc1Cl", "target or system": "Acetylcholinesterase (Ache, Rattus norvegicus, UniProt P37136)", "test": "enzyme activity, inhibitor, discontinuous Ellman", "test system": "rat, postnatal day 12, rat skeletal muscle homogenate", "conditions": "15 min, 37 °C", "measurement": "IC50", "result": "64 nM"}
{"Compound": "CCCCCCCCCCCCCC#CC(=O)O", "target or system": "Plasmodium berghei", "test system": "Huh-7", "conditions": "2 h post-infection, liver stage, luciferase reporter", "measurement": "IC50", "result": "0.48 µg/mL"}
{"Compound": "Cc1nc2c(C(=O)N(C)Cc3ccccc3)c[nH]n2c(=O)c1Cc1ccc(Cl)cc1", "target or system": "dengue virus 2", "test": "viral replication, single-cycle viral yield", "test system": "New Guinea C", "conditions": "5 µM", "measurement": "inhibition", "result": "20%"}
{"Compound": "CC(C)[C@H](NC(=O)CNC(=O)[C@H](COP(=O)(O)O)NC(=O)[C@@H](NC(=O)[C@H](CCC(=O)O)NC(=O)[C@H](CC(=O)O)NC(=O)CCNC(=O)Cc1cc(=O)oc2cc(N)ccc12)C(C)C)C(=O)N[C@@H](CCCCNc1ccc([N+](=O)[O-])cc1[N+](=O)[O-])C(=O)N[C@@H](CC(=O)O)C(N)=O", "target or system": "Caspase-3 (CASP3, Homo sapiens, UniProt P42574)", "test": "substrate", "conditions": "pH 7.2, 37 °C", "measurement": "kcat", "result": "0.002 s⁻¹"}
{"note": "Some of these lines once more:"}
{"Compound": "Cc1cc(Nc2ccc(S(F)(F)(F)(F)F)cc2)n2nc(C(C)(F)F)nc2n1", "target or system": "Plasmodium falciparum", "test": "parasite growth, SYBR Green", "test system": "Ugandan patient field isolates, Albumax-based medium", "conditions": "72 h", "measurement": "EC50", "result": "0.77 nM"}
{"Compound": "COC(=O)c1cc(Cl)ccc1NC(=O)CSc1ncc(S(=O)(=O)c2ccc(Br)cc2)c(=O)[nH]1", "target or system": "dengue virus 2", "test": "viral replication, single-cycle viral yield", "test system": "New Guinea C", "conditions": "10 µM", "measurement": "inhibition", "result": "> 90%"}
{"Compound": "CC(=O)N[C@@H](CO)C(=O)N[C@@H](C)C(=O)N[C@@H](CO)C(=O)N[C@@H](C)C(=O)N[C@@H](CO)C(=O)N[C@@H](Cc1ccc(OP(=O)(O)O)cc1)C(=O)N[C@@H](CO)C(=O)N[C@@H](C)C(=O)N[C@@H](CO)C(=O)N[C@@H](C)C(N)=O", "target or system": "SHP-1 catalytic domain (ΔSH2)", "test": "phosphatase activity, substrate", "conditions": "pH 7.4", "measurement": "kcat", "result": "26 ± 4 s⁻¹"}
